Assay results collected from several papers.
A part holds a random share of what one study measured. Positions count from the first letter of the parent shown.

Series 1
Target: CCND1, cyclin fold, Cln2 fusion (human)
Technique: yeast growth competition, sequencing
Matrix: yeast
Notes: weak parent motif
Baseline: not given
Direction: higher = stronger binding
Starting sequence: SLBP docking peptide (human); ARYKRKLLINDFG
Substitution | normalised enrichment score
NRYKRKLLINDFG [A1N] | 0.181
ARYKYKLLINDFG [R5Y] | -0.0901
AEYKRKLLINDFG [R2E] | 0.417
ARYKRKLLINDFD [G13D] | -0.375

Series 2
Target: Histone acetyltransferase KAT6A, winged helix 2, GST fusion (KAT6A, Homo sapiens, UniProt Q92794, residues 85-181)
Technique: protein binding microarray
Molecule type: double-stranded DNA, one strand shown
Matrix: in vitro
Concentration: not given
Notes: 8-mer, flanks averaged, mean of 2 arrays, mostly near background
Baseline: not given
Direction: higher = stronger binding
Construct (chain): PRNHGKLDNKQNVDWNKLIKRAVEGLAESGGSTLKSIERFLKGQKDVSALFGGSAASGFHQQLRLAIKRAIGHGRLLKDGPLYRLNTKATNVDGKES
Oligonucleotide | E-score
CCGAAAGA | 0.0133
ACGTGTCC | -0.186
ATATGGTG | -0.065
CGGCCAGC | 0.149

Series 3
Target: RNA binding protein fox-1 homolog 2, RRM domain, GST-SBP tag (RBFOX2, Homo sapiens, UniProt O43251-10, residues 100-194)
Technique: RNA Bind-n-Seq
Molecule type: RNA
Matrix: in vitro
Concentration: 365 nM
Notes: natural RNA segment, single round, ends assumed
Baseline: no-protein control
Direction: higher = stronger binding
All sequences stand within: GGGAGUUCUACAGUCCGACGAUC … UGGAAUUCUCGGGUGCCAA
Construct (chain): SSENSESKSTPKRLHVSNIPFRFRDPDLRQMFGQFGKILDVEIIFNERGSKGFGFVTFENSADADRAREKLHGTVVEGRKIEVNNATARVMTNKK
Oligonucleotide | RBNS enrichment (R)
GGAGUCUAGCUCACAUAAAGAGAGUGUUAUAUAAAAAUCCGACAGCUGAACUAGGUUGCUCUUUUUUGGCAGGGAGUGGGGAUGAGAUUUGACACCAAUAUGGGCAAAAU | 0.556
GAGGUGUGUCCUGGCCCUGCGGAGAGAAGAGGCCUGUGGUUCAGCUGGCACGCUCUGCUCCAGGCUCUGACUCAGGGGUGGCUGAGCCUCAUGCUCCCAGAACCAUGCAU | 0.684
CUUGGGCCUGCACUAGGCUUUAGAAAUGACAGUUUGUGAGUCUAUGAAUAAUUAUUUUUUAAAAAACUUUGUUGUCUCUGUUCUGAGUCUGAAUUCCUUGCAGAUGGUAG | 0.548
UGAUUGGGCGCAACGAACUGCAUUUCUUUGGACUUCUGAAUCCAUGUUUGUGCUUUCUCUGGCCCGUGAACACCUCGGCGAUUCUGUUAGGGAUGGGAUGAGUGGGAGGA | 0.501
UCUUUUCCUAUAGGUUUGCAGAGCAUGUCUGCAGUUUCUCGGUUGUUAUAGAUUUCCUACCUAACCGGGAUGAUGAUGCACAGAACUCUAAAGCCAGUAGUGUGGCAACA | 4.69
CCUCUGUAAGAUACUGAUUCUUCCUGGGGCCAGUAUUACCUUGUAUGCAAAUAUUACAUAUGAUGGGUGCAUUGUCAGAGGGAAAAUAUAUGUGUAUGUACACAUGUGUA | 0.331
AGCCUCAAGGACACACUUUCCAGAUCGCCUCUAGAAGGGAGAGGAGAUCCCGUCACUAUCUGGCAAAUGCACCAUGCGGCCAGGCUGCAGGGGCUCUGGGCAUGCUGUGC | 1.47
CUCCUUGUAACCUUCUGUAACUAUUGGAUGACGCUUUCUCCAGCUUAGCCCUAAAUAAAGCACAGUUAAAAAAAUAUUUCUUCAUUGGUCUGUGCCUCUCGGACUCUGGC | 0.62

Further values, each from its own experiment
Substance | target | test | system | conditions | scale | quantity | value
PhoQ, residues 284 288 289 292 302 303 TSTLRA | PhoP, residues 12 14 15 18 19 TTLRV (Escherichia coli, UniProt P23836) | Sort-seq, item: YFP reporter | E. coli | PhoQ-PhoP variant library, together with: 10 µM Mg2+ | baseline: high Mg2+ state, higher = stronger signaling | fold induction | 11

Excerpt of the above (series 3):
Oligonucleotide | RBNS enrichment (R)
CUCCUUGUAACCUUCUGUAACUAUUGGAUGACGCUUUCUCCAGCUUAGCCCUAAAUAAAGCACAGUUAAAAAAAUAUUUCUUCAUUGGUCUGUGCCUCUCGGACUCUGGC | 0.62
